Experimental data gathered from unrelated publications.
Protocols differ between the studies behind these lines. Values joined by “and” are separate records of one study, mostly repeats; a detail may differ. ± marks the error that the study gave.
folP: Dihydropteroate synthase (folP, Bacteria, UniProt P0AC13)
UniProt P0AC13, sequence (whole entry, looked up): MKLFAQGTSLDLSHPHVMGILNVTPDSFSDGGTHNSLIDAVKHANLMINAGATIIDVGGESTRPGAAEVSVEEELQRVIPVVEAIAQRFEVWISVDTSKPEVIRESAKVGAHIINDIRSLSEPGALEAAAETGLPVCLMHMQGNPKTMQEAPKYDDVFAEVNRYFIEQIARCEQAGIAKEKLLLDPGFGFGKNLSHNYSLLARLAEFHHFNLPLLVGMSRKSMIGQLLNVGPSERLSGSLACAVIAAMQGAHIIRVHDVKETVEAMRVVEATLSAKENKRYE
UniProt P28566, sequence (whole entry, looked up): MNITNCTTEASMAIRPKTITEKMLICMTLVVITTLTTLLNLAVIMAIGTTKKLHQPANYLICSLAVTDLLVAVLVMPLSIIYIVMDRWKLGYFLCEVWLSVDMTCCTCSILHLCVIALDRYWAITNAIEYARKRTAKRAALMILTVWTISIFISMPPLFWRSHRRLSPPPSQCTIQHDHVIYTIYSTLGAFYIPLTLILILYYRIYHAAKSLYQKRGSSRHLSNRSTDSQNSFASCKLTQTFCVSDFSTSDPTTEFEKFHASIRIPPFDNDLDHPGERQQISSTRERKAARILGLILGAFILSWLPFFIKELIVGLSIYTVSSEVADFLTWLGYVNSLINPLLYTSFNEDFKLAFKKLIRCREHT
UniProt Q9UK32, sequence (whole entry, looked up): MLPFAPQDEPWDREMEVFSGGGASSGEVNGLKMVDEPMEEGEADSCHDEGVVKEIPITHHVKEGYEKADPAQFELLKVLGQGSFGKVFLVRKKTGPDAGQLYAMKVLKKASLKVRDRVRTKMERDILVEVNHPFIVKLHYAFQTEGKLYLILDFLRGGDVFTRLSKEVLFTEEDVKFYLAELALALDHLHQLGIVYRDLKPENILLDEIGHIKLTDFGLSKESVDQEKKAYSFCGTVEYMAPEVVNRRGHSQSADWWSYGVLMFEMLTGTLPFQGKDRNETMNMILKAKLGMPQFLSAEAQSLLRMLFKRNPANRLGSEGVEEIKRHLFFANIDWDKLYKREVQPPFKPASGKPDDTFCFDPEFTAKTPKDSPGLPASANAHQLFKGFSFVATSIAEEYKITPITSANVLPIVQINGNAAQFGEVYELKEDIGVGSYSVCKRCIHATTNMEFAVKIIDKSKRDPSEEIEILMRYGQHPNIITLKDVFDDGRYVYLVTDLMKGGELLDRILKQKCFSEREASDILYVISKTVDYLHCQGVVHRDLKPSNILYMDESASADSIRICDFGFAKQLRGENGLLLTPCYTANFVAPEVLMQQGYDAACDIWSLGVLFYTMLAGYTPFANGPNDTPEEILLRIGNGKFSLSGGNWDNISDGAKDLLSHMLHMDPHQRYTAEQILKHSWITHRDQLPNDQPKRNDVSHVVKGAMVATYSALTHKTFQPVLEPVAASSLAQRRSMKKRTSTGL
UniProt Q8TEY7, sequence (whole entry, looked up): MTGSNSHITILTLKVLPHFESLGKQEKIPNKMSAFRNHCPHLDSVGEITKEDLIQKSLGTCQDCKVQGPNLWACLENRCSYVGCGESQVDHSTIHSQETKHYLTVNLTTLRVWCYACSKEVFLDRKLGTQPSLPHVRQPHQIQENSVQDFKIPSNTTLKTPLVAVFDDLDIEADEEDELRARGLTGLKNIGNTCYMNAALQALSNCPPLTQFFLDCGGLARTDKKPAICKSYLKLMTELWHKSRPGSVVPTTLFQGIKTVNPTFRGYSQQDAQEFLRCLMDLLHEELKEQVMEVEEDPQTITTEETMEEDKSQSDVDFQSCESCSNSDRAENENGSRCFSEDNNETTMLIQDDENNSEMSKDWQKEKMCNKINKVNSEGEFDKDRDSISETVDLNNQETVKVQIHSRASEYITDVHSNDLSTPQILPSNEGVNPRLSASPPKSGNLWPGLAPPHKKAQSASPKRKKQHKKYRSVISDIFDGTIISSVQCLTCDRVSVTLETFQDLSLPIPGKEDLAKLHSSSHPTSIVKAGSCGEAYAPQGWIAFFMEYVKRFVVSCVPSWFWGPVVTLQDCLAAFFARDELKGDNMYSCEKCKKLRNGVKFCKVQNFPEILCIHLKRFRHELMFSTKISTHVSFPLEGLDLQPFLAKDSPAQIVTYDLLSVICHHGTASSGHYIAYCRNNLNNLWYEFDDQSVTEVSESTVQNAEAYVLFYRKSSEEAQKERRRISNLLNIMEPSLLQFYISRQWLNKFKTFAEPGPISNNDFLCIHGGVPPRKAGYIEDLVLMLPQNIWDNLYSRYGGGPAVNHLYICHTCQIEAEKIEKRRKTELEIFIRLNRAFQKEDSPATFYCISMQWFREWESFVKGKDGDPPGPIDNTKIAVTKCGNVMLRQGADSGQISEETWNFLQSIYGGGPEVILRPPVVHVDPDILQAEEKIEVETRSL
UniProt P39748, sequence (whole entry, unmodified, looked up): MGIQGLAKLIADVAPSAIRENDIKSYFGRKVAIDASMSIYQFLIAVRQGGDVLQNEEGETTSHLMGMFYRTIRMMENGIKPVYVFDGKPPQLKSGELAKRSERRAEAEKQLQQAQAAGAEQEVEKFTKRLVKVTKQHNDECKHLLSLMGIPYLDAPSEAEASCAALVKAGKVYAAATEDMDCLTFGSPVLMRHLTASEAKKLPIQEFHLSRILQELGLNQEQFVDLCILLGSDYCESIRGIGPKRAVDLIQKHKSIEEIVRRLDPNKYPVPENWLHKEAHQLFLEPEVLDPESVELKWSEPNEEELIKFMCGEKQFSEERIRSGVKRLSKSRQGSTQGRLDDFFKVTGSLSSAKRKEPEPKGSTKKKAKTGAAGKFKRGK
UniProt Q9UJS0, sequence (whole entry, looked up): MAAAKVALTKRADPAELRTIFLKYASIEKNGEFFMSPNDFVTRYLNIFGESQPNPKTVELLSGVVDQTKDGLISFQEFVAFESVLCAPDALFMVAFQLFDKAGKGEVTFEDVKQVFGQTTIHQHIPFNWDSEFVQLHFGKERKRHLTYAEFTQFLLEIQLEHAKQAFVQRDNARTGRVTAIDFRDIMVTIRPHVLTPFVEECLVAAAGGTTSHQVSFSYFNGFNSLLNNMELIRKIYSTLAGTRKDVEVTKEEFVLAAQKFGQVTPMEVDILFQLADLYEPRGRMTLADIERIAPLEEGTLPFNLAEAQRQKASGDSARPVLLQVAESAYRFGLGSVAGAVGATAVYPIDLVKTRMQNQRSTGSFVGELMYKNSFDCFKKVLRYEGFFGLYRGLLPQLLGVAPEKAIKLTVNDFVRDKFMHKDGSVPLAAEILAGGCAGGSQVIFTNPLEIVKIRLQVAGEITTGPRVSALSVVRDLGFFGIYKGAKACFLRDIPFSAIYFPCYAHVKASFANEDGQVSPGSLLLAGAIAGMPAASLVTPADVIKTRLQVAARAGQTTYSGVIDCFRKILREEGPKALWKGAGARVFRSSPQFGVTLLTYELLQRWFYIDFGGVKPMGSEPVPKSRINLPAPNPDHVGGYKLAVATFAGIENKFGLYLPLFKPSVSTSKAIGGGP
UniProt Q96GI7, sequence (whole entry, looked up): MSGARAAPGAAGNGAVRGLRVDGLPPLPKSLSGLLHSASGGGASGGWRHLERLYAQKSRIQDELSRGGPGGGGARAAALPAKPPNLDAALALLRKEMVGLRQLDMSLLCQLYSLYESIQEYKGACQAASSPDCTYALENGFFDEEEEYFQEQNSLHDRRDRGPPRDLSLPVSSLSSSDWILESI
UniProt Q9NSA0, sequence (whole entry, looked up): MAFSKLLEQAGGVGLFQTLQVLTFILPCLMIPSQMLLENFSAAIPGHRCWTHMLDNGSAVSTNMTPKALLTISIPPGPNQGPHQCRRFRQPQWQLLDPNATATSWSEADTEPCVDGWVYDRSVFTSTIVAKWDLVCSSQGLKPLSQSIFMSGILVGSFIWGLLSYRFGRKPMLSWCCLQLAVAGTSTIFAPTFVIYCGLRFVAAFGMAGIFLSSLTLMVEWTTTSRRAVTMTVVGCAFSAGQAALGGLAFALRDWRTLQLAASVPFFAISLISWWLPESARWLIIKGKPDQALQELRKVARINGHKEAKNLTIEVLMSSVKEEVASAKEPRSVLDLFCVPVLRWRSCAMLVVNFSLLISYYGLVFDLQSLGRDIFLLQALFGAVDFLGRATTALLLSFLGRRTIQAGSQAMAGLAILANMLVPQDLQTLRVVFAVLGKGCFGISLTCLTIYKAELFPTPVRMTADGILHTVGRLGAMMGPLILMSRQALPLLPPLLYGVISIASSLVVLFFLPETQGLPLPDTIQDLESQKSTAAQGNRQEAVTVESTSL
UniProt P69687, sequence (whole entry, looked up): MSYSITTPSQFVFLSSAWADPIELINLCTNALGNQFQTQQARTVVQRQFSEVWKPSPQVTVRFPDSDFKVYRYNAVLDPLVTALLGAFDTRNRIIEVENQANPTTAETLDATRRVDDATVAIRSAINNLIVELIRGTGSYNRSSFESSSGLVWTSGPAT

SMILES	tested on	test	system	conditions	how to read	quantity	value
CSCC[C@H](NC(=O)[C@@H](NC(=O)[C@@H]1CCCN1C(=O)[C@H](Cc1c[nH]cn1)NC(=O)[C@H](CO)NC(=O)[C@H](CCC(N)=O)NC(=O)[C@H](CO)NC(C)=O)C(C)C)C(=O)N[C@@H](CCCCN)C(=O)N[C@@H](C)C(=O)N[C@@H](Cc1ccccc1)C(=O)N[C@@H](CS)C(=O)NCC(=O)N[C@@H](CC(C)C)C(=O)N[C@@H](CC(C)C)C(=O)N[C@@H](CC(C)C)C(=O)N[C@@H](CCC(N)=O)C(=O)N[C@@H](CO)C(=O)N[C@@H](CO)C(N)=O	Calmodulin-1, Ca2+-free (CALM1, Homo sapiens, UniProt P0DP23)	binding to apo-calmodulin, NMR titration	–	pH 7.4, 25 °C, with: EGTA 10 mM	–	Kd	> 800 µM
CCc1nc2cc3ccccc3cc2cc1C(=O)N[C@@H](CCCCN)C(=O)N[C@@H](C/C=C\C[C@H](NC(=O)[C@H](CCCCN)NC(=O)c1cc2cc3ccccc3cc2nc1CC)C(=O)N1CCC[C@H]1C(=O)NCCCN)C(=O)N1CCC[C@H]1C(=O)NCCCN	(CAG)10 RNA	SPR	–	–	–	Kd	0.445 µM
Cn1nc(CO)c(=O)c2c(=O)[nH]c(N)nc21	folP	binding, SPR	–	–	–	Kd	0.0189 µM
CNc1cc(N)c(C(N)=O)cn1	Nicotinamide N-methyltransferase, SAM-bound (Rattus norvegicus, UniProt A0ABK0M0V0)	substrate, SPR	–	37 °C, with: SAM	–	Kd	2 µM
CCc1nc2cc3ccccc3cc2cc1C(=O)N1CCC[C@H]1C(=O)N[C@@H](C/C=C\C[C@H](NC(=O)[C@@H]1CCCN1C(=O)c1cc2cc3ccccc3cc2nc1CC)C(=O)N[C@@H](CCCCN)C(=O)NCCCN)C(=O)N[C@@H](CCCCN)C(=O)NCCCN	(CAG)10 RNA	SPR	–	–	–	Kd	0.052 µM
CCn1cnc2c(Oc3ccc(/C=C/C(=O)c4ccc(NS(=O)(=O)c5ccccc5C)cc4)cc3)ncnc21	CP (Tobacco mosaic virus, UniProt P69687)	binding, MST	–	–	–	Kd	13.7 µM
C=CC(=O)Nc1cccc(Cn2ncc3cnc(Nc4cnn(CCOC)c4)nc32)c1	CDKL2 human	binding, KINOMEscan	–	100 nM	lower = stronger binding	percent of control	69%
O=C(O)CCC(=O)C(=O)O	Uncharacterized protein (Pelagibacter ubique, UniProt Q4FKX4)	isothermal titration calorimetry	Candidatus Pelagibacter ubique	–	–	Kd	0.0067 µM and 0.00875 µM
C[C@H](CCC(=O)NCCS(=O)(=O)O)[C@H]1CC[C@H]2[C@@H]3CC[C@@H]4C[C@H](OS(=O)(=O)O)CC[C@]4(C)[C@H]3CC[C@]12C	SLC25A13 (Homo sapiens, UniProt Q9UJS0)	binding, ITC	–	pH 6.5	–	Kd	101 µM
Nc1nc2[nH]nc(CCC(=O)O)c(=O)c2c(=O)[nH]1	folP	binding, SPR	–	–	–	Kd	0.0783 µM
O=C(CCCCCNC(=S)Nc1ccc2c(c1)C(=O)OC21c2ccc(O)cc2Oc2cc(O)ccc21)N[C@@H](Cc1c[nH]c2ccccc12)C(=O)N[C@@H](Cc1c[nH]c2ccccc12)C(=O)N[C@@H](Cc1c[nH]c2ccccc12)C(=O)N[C@@H](Cc1c[nH]c2ccccc12)C(=O)N[C@@H](Cc1c[nH]c2ccccc12)C(=O)N[C@@H](Cc1c[nH]c2ccccc12)C(=O)N[C@@H](Cc1c[nH]c2ccccc12)C(=O)N[C@@H](Cc1c[nH]c2ccccc12)C(=O)O	G8	binding, fluorescence intensity probability	streptavidin-coated polystyrene microbeads	–	–	Kd	0.000118 µM
COc1ccccc1-c1nnc(SC(C)c2nnc(-c3cccs3)o2)o1 (racemic)	VSIR (Homo sapiens, UniProt Q9H7M9)	binding, MST	–	–	–	Kd	0.49 µM
COc1cc(/C=N/Nc2ccc(C(=O)O)cc2)ccc1OS(=O)(=O)c1ccc(C)cc1	HTR1E (Homo sapiens, UniProt P28566)	dynamic mass redistribution	HEK293 expressing HTR1E	–	–	Kd	0.0274 ± 0.0023 µM
O=C(O)CCC(NC(=O)NC(CCCCNC(=O)C(Cc1ccc2ccccc2c1)NC(=O)C1CCC(CNC(=O)CCCCCNC(=S)Nc2ccc3c(c2)C(=O)OC32c3ccc(O)cc3Oc3cc(O)ccc32)CC1)C(=O)O)C(=O)O (stereo not shown)	N-acetylated-alpha-linked acidic dipeptidase 2 (Homo sapiens, UniProt Q9Y3Q0)	cell-free assay, FP	–	–	–	Kd	0.00112 µM
COC1CN([C@H]2CC[C@H]([C@@]3(C)Oc4c(Cl)cc(C(=O)NCc5c(SC)cc(C)[nH]c5=O)c(C)c4O3)CC2)C1	–	RNA-seq, item: VLDLR	human, whole blood	dose not given, 24 h	relative to: pretreatment baseline	log2 fold change	3.74
O=C(NS(=O)(=O)c1cccs1)c1cc2ccccc2n1Cc1ccc(Br)c2ccccc12	SLC22A11 (Homo sapiens, UniProt Q9NSA0)	binding, SPR	–	–	–	Kd	0.71 µM
CCCCCCCCCCCCCCOc1c(O)cc(C(=O)O[C@@H]2Cc3c(O)cc(O)cc3O[C@@H]2c2cc(O)c(O)c(O)c2)cc1O	Albumin (ALB, Homo sapiens, UniProt P02768)	tryptophan fluorescence quenching	–	–	–	Kd	1.27 µM
Cc1c[nH]c2nccc(-c3ccc(C(=O)N[C@@H]4c5c(F)cc(C(F)F)cc5C[C@@H]4O)cn3)c12	Ribosomal protein S6 kinase alpha-6, N-terminal kinase domain (RPS6KA6, Homo sapiens, UniProt Q9UK32)	binding, competition with immobilised ligand	–	–	–	Kd	0.245 µM
O=c1cc(-c2ccccc2)oc2c(OCCCCN3CCCC3)c(OCc3ccccc3)cc(O)c12	TXNRD1 (Homo sapiens, UniProt Q16881, G442A)	binding, microscale thermophoresis	–	–	–	Kd	284 µM
CCCC[C@@H]1NC(=O)[C@H](Cc2ccc(O)cc2)NC(=O)[C@@H]2CCCN2C(=O)[C@H](CC(=O)O)NC(=O)[C@H](C)NC(=O)[C@H](Cc2ccccc2)NC(=O)[C@@H]2CSCCC(=O)N3CN(CN(C3)C(=O)CCSC[C@@H](C(=O)N[C@@H](C)C(N)=O)NC1=O)C(=O)CCSC[C@H](NC(C)=O)C(=O)N[C@@H](CC(C)(C)C)C(=O)N1CCC[C@H]1C(=O)N[C@@H](CCC(=O)O)C(=O)N[C@H](CCCCNC(=O)CCc1cn(CCOCCOCCOCCN(CCOCCOCCOCCC(=O)N[C@H]3CSCCC(=O)N4CN5CN(C4)C(=O)CCSC[C@H](NC(=O)[C@@H](CC(=O)O)NC(=O)[C@H](Cc4cccc6ccccc46)NC(=O)[C@@H]4CCCN4C3=O)C(=O)N[C@@H](CCSC)C(=O)N[C@@H](CCCCNC(=N)N)C(=O)N[C@@H](CC(=O)O)C(=O)N[C@@H](Cc3c[nH]c4ccccc34)C(=O)N[C@@H](CO)C(=O)N[C@@H]([C@@H](C)O)C(=O)N3CCC[C@H]3C(=O)N3C[C@H](O)C[C@H]3C(=O)N[C@@H](Cc3c[nH]c4ccccc34)C(=O)N[C@H](C(N)=O)CSCCC5=O)CCOCCOCCOCCn3cc(CCC(=O)NCCCC[C@H]4NC(=O)[C@H](CCC(=O)O)NC(=O)[C@@H]5CCCN5C(=O)[C@H](CC(C)(C)C)NC(=O)[C@@H](NC(C)=O)CSCCC(=O)N5CN6CN(C5)C(=O)CCSC[C@H](NC(=O)[C@H](Cc5ccc(O)cc5)NC(=O)[C@@H]5CCCN5C4=O)C(=O)N[C@@H](Cc4ccccc4)C(=O)N[C@@H](C)C(=O)N[C@@H](CC(=O)O)C(=O)N4CCC[C@H]4C(=O)N[C@@H](Cc4ccc(O)cc4)C(=O)N[C@@H](CCCC)C(=O)N[C@H](C(=O)N[C@@H](C)C(N)=O)CSCCC6=O)nn3)nn1)C(=O)N1CCC[C@H]1C(=O)N[C@@H](Cc1ccc(O)cc1)C(=O)N2	Cell adhesion molecule 2 (CADM2, Homo sapiens, UniProt Q8N3J6)	SPR	–	–	–	Kd	> 0.2 µM
NCCCC[C@H](NC(=O)[C@H](C/C=C\C[C@H](NC(=O)[C@@H]1CCCN1)C(=O)N[C@@H](CCCCN)C(=O)NCCCN)NC(=O)[C@@H]1CCCN1)C(=O)NCCCN	(CAG)10 RNA	SPR	–	–	–	Kd	0.176 µM
Cn1ncc2cc(-c3cncc(Cl)c3N3CCC4(CCNC4=O)CC3)ccc21	Protein FAM89A (FAM89A, Homo sapiens, UniProt Q96GI7)	SILAC displacement	LS174T-L5 cell lysate	–	–	Kd	9.2 µM
O=c1c2sccc2n(CC2COc3ccccc3O2)c(=O)n1O (stereo not shown)	Flap endonuclease 1 (Homo sapiens, UniProt P39748, R100A)	ITC	–	pH 7.5, 25 °C, with: 8 mM Mg2+	–	Kd	0.117 µM
Cn1nc(COC(=O)c2ccccc2)c(=O)c2c(=O)[nH]c(N)nc21	folP	binding, SPR	–	–	–	Kd	0.0022 µM
C=CC(=O)N1C[C@H](C)N(c2nc(OC[C@@]34CCCN3C[C@H](F)C4)nc3c(F)c(-c4ccc(F)c5sc(N)c(C#N)c45)c(C(F)(F)F)cc23)C[C@H]1C	GTPase KRas, GppNHp-bound (KRAS, Homo sapiens, UniProt P01116, Q61R)	–	–	–	–	Kd	85.1 µM and 78.2 µM
Cc1ncsc1-c1ccc(C(C)NC(=O)C2CC(O)CN2C(=O)C(NC(=O)CCCCCCCCCCN2CCCC(Nc3ncc(Cl)c(Nc4ccccc4S(=O)(=O)C(C)C)n3)C2)C(C)(C)C)cc1 (stereo not shown)	22Rv1	RNA-seq, item: STOML1 mRNA	–	concentration not given	relative to: DMSO	log2 fold change	-1.31
Cn1nc(CNc2nnn[nH]2)c(=O)c2c(=O)[nH]c(N)nc21	folP	binding, SPR	–	–	–	Kd	0.00323 µM
O=C(O)CCC(=O)c1cccc(NS(=O)(=O)c2c[nH]c3ncccc23)c1	Ubiquitin carboxyl-terminal hydrolase 33, ZnF-UBD domain (USP33, Homo sapiens, UniProt Q8TEY7)	–	–	–	–	Kd	> 1000 µM

Some of these lines once more:
SMILES	tested on	test	system	conditions	how to read	quantity	value
O=C(O)CCC(NC(=O)NC(CCCCNC(=O)C(Cc1ccc2ccccc2c1)NC(=O)C1CCC(CNC(=O)CCCCCNC(=S)Nc2ccc3c(c2)C(=O)OC32c3ccc(O)cc3Oc3cc(O)ccc32)CC1)C(=O)O)C(=O)O (stereo not shown)	N-acetylated-alpha-linked acidic dipeptidase 2 (Homo sapiens, UniProt Q9Y3Q0)	cell-free assay, FP	–	–	–	Kd	0.00112 µM
COC1CN([C@H]2CC[C@H]([C@@]3(C)Oc4c(Cl)cc(C(=O)NCc5c(SC)cc(C)[nH]c5=O)c(C)c4O3)CC2)C1	–	RNA-seq, item: VLDLR	human, whole blood	dose not given, 24 h	relative to: pretreatment baseline	log2 fold change	3.74
O=C(NS(=O)(=O)c1cccs1)c1cc2ccccc2n1Cc1ccc(Br)c2ccccc12	SLC22A11 (Homo sapiens, UniProt Q9NSA0)	binding, SPR	–	–	–	Kd	0.71 µM
CCCCCCCCCCCCCCOc1c(O)cc(C(=O)O[C@@H]2Cc3c(O)cc(O)cc3O[C@@H]2c2cc(O)c(O)c(O)c2)cc1O	Albumin (ALB, Homo sapiens, UniProt P02768)	tryptophan fluorescence quenching	–	–	–	Kd	1.27 µM
